Published values of several laboratories.
Numbered parts are unrelated; each lists some results of a single study. Changes are numbered by the printed parent chain.

Study 1
Target: RING finger protein unkempt homolog, zinc fingers 1-6, GST-SBP tag (UNK, Homo sapiens, UniProt Q9C0B0, residues 30-357)
Technique: RNA Bind-n-Seq
Form: RNA
Matrix: in vitro
Concentration: not given
Notes: RNA with constant flanks, human and mouse sites, ends assumed
Baseline: input RNA pool
Reading: higher = stronger binding
All sequences stand within: GGGAGUUCUACAGUCCGACGAUC … CAACAGAGGAUUGAGCAUCA
Target sequence (chain): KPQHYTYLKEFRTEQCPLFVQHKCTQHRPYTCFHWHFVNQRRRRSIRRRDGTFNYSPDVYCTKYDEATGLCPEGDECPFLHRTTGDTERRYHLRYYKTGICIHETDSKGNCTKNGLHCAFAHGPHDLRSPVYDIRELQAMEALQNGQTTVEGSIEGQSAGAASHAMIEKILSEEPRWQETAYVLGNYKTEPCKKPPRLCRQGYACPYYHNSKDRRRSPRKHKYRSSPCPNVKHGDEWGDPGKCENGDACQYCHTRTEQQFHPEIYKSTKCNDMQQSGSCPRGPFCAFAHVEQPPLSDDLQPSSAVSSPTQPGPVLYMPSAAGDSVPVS
| Sequence | bound/input enrichment [ratio] |
| --- | --- |
| CGGGAUGAGUUUCUGAGAAUCAGCACUGCUAGUGGAGAUGGGCGCCACUACUGCUACCCUCACUUUACCUGCGCCGUGGACACUGAGAACAUCCGCCGUGUCUUCAACGACUGCCGUGAC | 0.156 |
| AGCCAGUCCCUAGGGCUCAGGGAGCAGGAGCUUCAGGUUGUCCGAGCAUCUGGGAAGUAAGUGGUAGGGGUGACAGGAAGCUAGGAGUACAGGCAUCCAUCUGUGGUGGGGAAACAGCUG | 0.246 |
| ACGCGGUUUCUGGUGCAGAACGCGGAGCGGCCUGGCGCCUCCCUGGGCCCGGGGGCUCUGCUGCGGGCCGAGUUCCACCAGCACACGCACCAGCACACACACCAGCACACACACCAGCAC | 0.354 |
| GACAGUGAAGGCCCACUGUGUGAAUUGCUUUUUUUCUUCCUGACUGCAAUCUUCCAGGCAAUAGCUGAAGAAGAAGAGGAAGUAGCCAAAGAGCAACUAACUGAUGCUGACACCAAAGAU | 0.0707 |
| AAGUCCAUUACUAUCCUCUCUACCCCUGAAGGCACCUCUGCAGCUUGUAAGUCUAUUCUGGAGAUUAUGCAUAAGGAAGCUCAAGAUAUAAAAUUCACAGAGGAGAUUCCCUUGAAGAUC | 0.176 |
| UAUUGCAAGGACCUUCUUUGCUGCCAGUUAUCAUAGGCUGUUUUAAGUUAGAAAACUGAAUAGCAACACUGAAUACUGUAGAAAUGCACUUUGCUCAGUAAUACUUGAGUUGUUGCAAUA | 0.265 |
| CGCUGUCUUGUGGACCCGCACUUCCCACCCGAGACCUCUCACUGAGCCCGAGCCGCGCGCGACAUGAGCCACGGGAAGGGAACCGACAUGCUCCCGGAGAUCGCCGCCGCCGUGGGCUUC | 0.143 |
| CUACCUAACCCUUUCUUAUUUGUAUUUGUUUUAGUAUUGUGAAGUUGUGUUAAAUAGUACUAGCUAGAAAUACAAAUUUCUGGUUAUCAUUUCUCUUCCCUGUGGCACUUGACAUUUUAA | 1.2 |
| AUAGAUAUAAAAUUUCCUCCCAAGAUGAAUCAUCCAGAUCUUCUGAUACAAGUGCUUGGAAUUCUGAAAAAAAGUGCAUUAUAUAUAGAUGUGGAAUCUGAUUUUCAUGCUAAAGUUCCU | 1.05 |
| CCGACGCGCGUCUGUGGAGAAGCGGCUUGGUCGGGGGUGGUCUCGUGGGGUCCUGCCUGUUUAGUCGCUUUCAGGGUUCUUGAGCCCCUUCACGACCGUCACCAUGGAAGUGUCACCAUU | 0.0844 |
| UACGCAGAGCGCUAUGAGACAUGGGAGGAGGAUCAAAGCCCACCCUUCCACUACAACACACAUUACUCAACGGCGACUUCCGCCCUGUCAUGGCUUGUUCGGAUUGAGCCAUUCACAACC | 0.175 |

Study 2
Target: Sal-like protein 4, full length isoform B (SALL4, Homo sapiens, UniProt Q9UJQ4-2, residues 1-616)
Technique: universal PBM
Form: double-stranded DNA, one strand shown
Matrix: in vitro
Concentration: not given
Notes: 8-mer, flanks averaged, mean of replicates
Reading: higher = stronger binding
| Sequence | E-score |
| --- | --- |
| AATTAAGC | 0.271 |
| AGTTTCGC | -0.0628 |
| AAAGGAGG | 0.0339 |
| ATCTTCGC | 0.071 |
| AGCAACCA | -0.0231 |
| ACTAGAAA | 0.239 |
| CCTGTCTC | -0.159 |
| GCACCCGC | -0.118 |
| AGTGCATC | 0.0328 |
| AGCACTAG | -0.11 |
| CCCCTCCG | -0.236 |
| CAACGCTG | -0.152 |
| GCGGTTAA | -0.0103 |
| CAGCTACC | -0.267 |
| AGGGGGAT | -0.0322 |
| AGGAGACG | -0.266 |
| CGTGTTGA | 0.018 |
| CCCCCACG | -0.125 |
| AACAGCCG | -0.144 |
| ACGAAATC | 0.0224 |
| GGGGACCC | -0.406 |
| ACCTCATG | -0.104 |
| AGGGCGGA | -0.293 |
| CCGGCAAG | -0.265 |
| CCTCTGAA | -0.166 |

Study 3
Target: CCNA1, cyclin fold, Cln2 fusion (human)
Technique: yeast growth competition, sequencing
Matrix: yeast
Notes: weak parent motif
Baseline: not given
Reading: higher = stronger binding
Starting sequence: PKN2 docking peptide (human); VSAVQKLDFSDTM
| Substitution | normalised enrichment score |
| --- | --- |
| D8S | 0.268 |
| D8Y | 0.16 |
| K6V | 0.283 |
| A3Q | 0.0602 |
| T12W | 0.417 |
| V4K | -0.0317 |
| L7H | 0.311 |
| S10D | 0.245 |
| D8H | 0.0604 |
| M13T | 0.165 |
| S10Y | 0.35 |
| D11P | 0.19 |
| V4T | -0.0456 |
| K6A | 0.226 |
| A3C | 0.0851 |
| S10P | 0.332 |
| S2N | 0.122 |
| V4H | 0.0894 |

Study 4
Target: Histone acetyltransferase KAT6A, winged helix 1, GST fusion (KAT6A, Homo sapiens, UniProt Q92794, residues 1-85)
Technique: protein binding microarray
Form: double-stranded DNA, one strand shown
Matrix: in vitro
Concentration: not given
Notes: 8-mer, flanks averaged, mean of 2 arrays, mostly near background
Baseline: not given
Reading: higher = stronger binding
Target sequence (chain): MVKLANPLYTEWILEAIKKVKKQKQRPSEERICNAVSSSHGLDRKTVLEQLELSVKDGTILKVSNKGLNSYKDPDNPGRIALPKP
| Sequence | E-score |
| --- | --- |
| AAGTTAGC | -0.0254 |
| GTTCGTTA | -0.00524 |
| AGTGATAA | -0.0801 |
| ATGGTGAG | -0.218 |
| TCACGACA | -0.163 |
| AGATTCTA | -0.198 |
| GTCGATTA | -0.129 |
| AATACTGG | -0.247 |
| CTTCTCTC | -0.122 |
| ATATATAG | -0.0999 |
| CGCCTGGA | 0.014 |
| ATCATCTA | -0.106 |
| TGTTTAAA | -0.0981 |
| GCACCAAC | 0.0119 |
| AACGACGG | 0.297 |
| CACTAGCC | 0.264 |
| ATTCACGC | 0.096 |
| AACGCAAG | -0.0857 |
| GTTCTACA | -0.0122 |
| GCACGGAA | 0.198 |
| ACTCAGGC | -0.13 |
| CCGGACCC | 0.202 |
| AGGGGACA | 0.022 |
| CGTTAACA | 0.13 |
| GACGCTGC | 0.165 |

Study 5
Target: Fragile X messenger ribonucleoprotein 1, C-terminal low-complexity region (Fmr1, Mus musculus, UniProt P35922)
Technique: RNA Bind-n-Seq
Form: RNA
Matrix: in vitro
Concentration: 200 nM
Notes: whole 134-nt RNA, ends assumed
With: 150 mM KCl
Baseline: input library
Reading: higher = stronger binding
All sequences stand within: GGGAGUUCUACAGUCCGACGAUC … UGGAAUUCUCGGGUGUCAAGG
| Sequence | log2 enrichment |
| --- | --- |
| UGUGCUACACAUCGUAUGUACCGAAUCGGGCCCCCCCGGGGCCCCCCCGGGGCCCCCCCGGGAAAGUAUUAUGUUACGCCGUUCGGAUCU | -1.53 |
| CAAGUCCUGUGCUACACAUCGUAUGUACCGAAUCGGGUGGGUGGGUUUUUUUGGGAAAGUAUUAUGUUACGCCGUUCGGAUCUGCACUUC | 1.03 |
| UGUGCUACACAUCGUAUGUACCGAAUCGGUUUUUUUGGGGUUUUUUUGGGGUUUUUUUGGGGAAAGUAUUAUGUUACGCCGUUCGGAUCU | -0.0456 |
| GUCCUGUGCUACACAUCGUAUGUACCGAAUCGGGCCCCCGGCCCCCGGGCCCCCGGGGAAAGUAUUAUGUUACGCCGUUCGGAUCUGCAC | -0.503 |
| UUUGAAGAUCAGCUUCAGCAAUGGUUGUCUGAAGACUCAGGAGCAUUUACGGAUUUAACUUCCCUUCCCCUCUAUCUUCCUCAGACUCUA | -0.108 |
| CCUGUGCUACACAUCGUAUGUACCGAAUCGGGGUGGGGUUUUUUUGGGGUUUUUUUGGGGAAAGUAUUAUGUUACGCCGUUCGGAUCUGC | 0.558 |
| CAAGUCCUGUGCUACACAUCGUAUGUACCGAAUCGGGCCCGGGCCCGGGGCCCGGAAAGUAUUAUGUUACGCCGUUCGGAUCUGCACUUC | -0.345 |
| UAACUUUAGAGGAGGAUCUGAUGGAUAUGGCAGUGGACGUGGAUUUGGGGAGGGCUAUAAUGGGUAUGGAGGAGGACCUGGAGGUGGCAA | 0.478 |
| CAAGUCCUGUGCUACACAUCGUAUGUACCGAAUCGGCCCGGGGCCCGGGGCCCGGAAAGUAUUAUGUUACGCCGUUCGGAUCUGCACUUC | -0.528 |
| UCCUGUGCUACACAUCGUAUGUACCGAAUCGGAAAAAAAGGAAAAAAAGGAAAAAAAGGAAAGUAUUAUGUUACGCCGUUCGGAUCUGCA | -0.273 |
| AAGUCCUGUGCUACACAUCGUAUGUACCGAAUCGGGAAAAAAAGGGAAAGGGAGGGAAAGUAUUAUGUUACGCCGUUCGGAUCUGCACUU | 0.598 |
| UGGCCCUGAUGGCAUGCGGGGAGGAAGAGGUGGCCUCAUGGAUCGUGGUGGUCCCGGUGGAAUGUUCAGAGGUGGCCGUGGUGGAGACAG | -0.0444 |
| AAGUCCUGUGCUACACAUCGUAUGUACCGAAUCGGUUUUUGGAAAAAGGUUUUUGGAAAGUAUUAUGUUACGCCGUUCGGAUCUGCACUU | -1.12 |
| CACAGACAACACGCACCCACACAGACACAGAGGGAAGGGGUUGGGAUGGGGACAGGGUGCACAGCAGGGCGGGGCAGGACCCCAGCCCCU | 1.26 |

For quick reference, copied from above (study 3):
| Substitution | normalised enrichment score |
| --- | --- |
| S10D | 0.245 |
| D8H | 0.0604 |
| M13T | 0.165 |
| S10Y | 0.35 |
| D11P | 0.19 |
| V4T | -0.0456 |
| K6A | 0.226 |
| A3C | 0.0851 |
| S10P | 0.332 |
